# Published values gathered from unrelated publications.
# Numbered parts are unrelated; each lists some results of a single study. Positions count from the first letter of the parent shown.

# Block 1 — technique: RNA Bind-n-Seq; molecule type: RNA; matrix: in vitro; concentration: 200 nM; notes: whole 134-nt RNA, ends assumed; added: 150 mM LiCl; baseline: input library; reading: higher = stronger binding; each molecule: 7-deaza-guanosine replaces G
# Target: Fragile X messenger ribonucleoprotein 1, C-terminal low-complexity region (Fmr1, Mus musculus, UniProt P35922)
# Shared flanks, not repeated: GGGAGUUCUACAGUCCGACGAUC … UGGAAUUCUCGGGUGUCAAGG
Sequence,log2 enrichment
AGUCCUGUGCUACACAUCGUAUGUACCGAAUCGGCCCCCGGCCCCCGGGGCCCCCGGAAAGUAUUAUGUUACGCCGUUCGGAUCUGCACU,-2.54
UGGCCCUGGUGGCAUCCGGGGAGGAAGAGGUGGCCUCAUGGAUCGUGGUGGUCCCGGUGGAAUGUUCAGAGGUGGCCGUGGUGGAGACAG,0.599
UAACUUUAGAGGAGGAUCUGAUGGAUAUGGGAGUGGACGUGGAUUUGGGGAUGGCUAUAAUGGGUAUGGAGGAGGACCUGGAGGUGGCAA,0.575
UGGGAGGUGGAUUUUGUUUAUUGUUUUAGCUCAUUUCCAGGGGUGGGAAUUUUUUUUUAAUAUGUGUCAUGAAUAAAGUUGUUUUUGAAA,0.0646
AAGUCCUGUGCUACACAUCGUAUGUACCGAAUCGGAAAAAGGUUUUUGGUUUUUGGAAAGUAUUAUGUUACGCCGUUCGGAUCUGCACUU,-3.17
CUGUGCUACACAUCGUAUGUACCGAAUCGGGGAAAAAAAGGGGAAAAAAAGGAAAAAAAGGGAAAGUAUUAUGUUACGCCGUUCGGAUCU,0.453
CAAGUCCUGUGCUACACAUCGUAUGUACCGAAUCGGAAAGGGAAAGGGAAAGGGGAAAGUAUUAUGUUACGCCGUUCGGAUCUGCACUUC,-0.279
UCAAGUCCUGUGCUACACAUCGUAUGUACCGAAUCGGGGCCGGCCGGGGCCGGGGAAAGUAUUAUGUUACGCCGUUCGGAUCUGCACUUC,-0.525

# Block 2 — technique: universal PBM; molecule type: double-stranded DNA, one strand shown; matrix: in vitro; concentration: not given; reading: higher = stronger binding
# Target: Sal-like protein 4, full length isoform B (SALL4, Homo sapiens, UniProt Q9UJQ4-2, residues 1-616)
# Notes: 8-mer, flanks averaged, mean of replicates
# Construct (chain): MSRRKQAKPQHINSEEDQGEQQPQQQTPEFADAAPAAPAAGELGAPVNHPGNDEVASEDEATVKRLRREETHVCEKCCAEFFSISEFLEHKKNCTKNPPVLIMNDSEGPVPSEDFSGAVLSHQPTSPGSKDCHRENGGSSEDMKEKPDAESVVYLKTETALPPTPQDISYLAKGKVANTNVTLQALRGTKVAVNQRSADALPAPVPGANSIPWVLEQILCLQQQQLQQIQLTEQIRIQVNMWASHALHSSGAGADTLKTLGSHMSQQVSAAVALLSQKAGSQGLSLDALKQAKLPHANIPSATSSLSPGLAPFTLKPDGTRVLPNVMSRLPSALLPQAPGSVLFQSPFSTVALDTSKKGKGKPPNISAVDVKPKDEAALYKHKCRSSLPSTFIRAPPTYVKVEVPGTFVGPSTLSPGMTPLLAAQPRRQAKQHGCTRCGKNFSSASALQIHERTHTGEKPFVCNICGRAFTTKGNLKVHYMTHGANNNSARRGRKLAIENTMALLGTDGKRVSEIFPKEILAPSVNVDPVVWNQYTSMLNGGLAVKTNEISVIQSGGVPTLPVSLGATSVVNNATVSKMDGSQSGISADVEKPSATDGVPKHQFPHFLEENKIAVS
Sequence,E-score
CCGGGTCC,-0.424
TCCAATCA,0.0226
AACGGCGT,-0.0463
ATGTAGCC,-0.00669
AAGGTCGG,-0.00856
TGGTGTAA,0.0962
CTGCAGCA,-0.148
CCCGTGGC,-0.277

# Block 3 — technique: RNA Bind-n-Seq; molecule type: RNA; matrix: in vitro; concentration: 20 nM; notes: 6-mer, flanks averaged, single round; added: 150 mM KCl; baseline: input library; reading: higher = stronger binding
# Target: TAR DNA-binding protein 43, full length, His tag (TARDBP, Homo sapiens, UniProt Q13148, residues 1-414)
Sequence,6-mer enrichment (R)
AAUCUU,0.587
AUCCGA,0.606
GCGAGC,1.42
AACUCG,0.622
CAUGGA,0.884
UAACGG,0.955
UCUUAA,0.554
CCGUUU,0.609

# Mixed results
# Starting sequence: viral docking peptide; TSVRRALFTGGSD; partner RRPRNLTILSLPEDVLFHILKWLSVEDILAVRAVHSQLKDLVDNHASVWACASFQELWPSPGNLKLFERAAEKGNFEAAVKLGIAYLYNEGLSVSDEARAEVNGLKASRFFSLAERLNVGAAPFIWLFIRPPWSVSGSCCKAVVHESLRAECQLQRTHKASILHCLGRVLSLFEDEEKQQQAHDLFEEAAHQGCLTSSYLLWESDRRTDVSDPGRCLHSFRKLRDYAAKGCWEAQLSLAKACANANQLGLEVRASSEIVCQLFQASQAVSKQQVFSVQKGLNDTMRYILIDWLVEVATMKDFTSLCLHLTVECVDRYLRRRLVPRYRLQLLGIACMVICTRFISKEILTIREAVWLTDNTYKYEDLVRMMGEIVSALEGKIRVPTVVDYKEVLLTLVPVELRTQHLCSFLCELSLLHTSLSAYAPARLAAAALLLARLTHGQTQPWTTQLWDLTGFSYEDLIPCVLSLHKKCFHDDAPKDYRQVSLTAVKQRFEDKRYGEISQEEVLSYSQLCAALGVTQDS
Substitution,target,assay,test system,setting,scale,quantity,value
R5N,"CCNF, cyclin fold, Cln2 fusion (human)","yeast growth competition, sequencing",yeast,strong parent motif,"baseline: not given, higher = stronger binding",normalised enrichment score,0.232

# Repeated from above (block 2):
Sequence,E-score
ATGTAGCC,-0.00669
